{"data": "Results from different studies", "note": "A part holds a random share of what one study measured. Substitutions count along the parent as printed.", "sequence of UniProt O24410 (whole entry, looked up)": "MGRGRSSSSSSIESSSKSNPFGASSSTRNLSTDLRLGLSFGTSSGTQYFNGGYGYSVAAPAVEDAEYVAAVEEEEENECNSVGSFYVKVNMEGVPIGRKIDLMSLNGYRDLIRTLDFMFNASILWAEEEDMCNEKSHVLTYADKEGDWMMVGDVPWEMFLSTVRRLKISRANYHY", "sequence of UniProt P93024 (whole entry, looked up)": "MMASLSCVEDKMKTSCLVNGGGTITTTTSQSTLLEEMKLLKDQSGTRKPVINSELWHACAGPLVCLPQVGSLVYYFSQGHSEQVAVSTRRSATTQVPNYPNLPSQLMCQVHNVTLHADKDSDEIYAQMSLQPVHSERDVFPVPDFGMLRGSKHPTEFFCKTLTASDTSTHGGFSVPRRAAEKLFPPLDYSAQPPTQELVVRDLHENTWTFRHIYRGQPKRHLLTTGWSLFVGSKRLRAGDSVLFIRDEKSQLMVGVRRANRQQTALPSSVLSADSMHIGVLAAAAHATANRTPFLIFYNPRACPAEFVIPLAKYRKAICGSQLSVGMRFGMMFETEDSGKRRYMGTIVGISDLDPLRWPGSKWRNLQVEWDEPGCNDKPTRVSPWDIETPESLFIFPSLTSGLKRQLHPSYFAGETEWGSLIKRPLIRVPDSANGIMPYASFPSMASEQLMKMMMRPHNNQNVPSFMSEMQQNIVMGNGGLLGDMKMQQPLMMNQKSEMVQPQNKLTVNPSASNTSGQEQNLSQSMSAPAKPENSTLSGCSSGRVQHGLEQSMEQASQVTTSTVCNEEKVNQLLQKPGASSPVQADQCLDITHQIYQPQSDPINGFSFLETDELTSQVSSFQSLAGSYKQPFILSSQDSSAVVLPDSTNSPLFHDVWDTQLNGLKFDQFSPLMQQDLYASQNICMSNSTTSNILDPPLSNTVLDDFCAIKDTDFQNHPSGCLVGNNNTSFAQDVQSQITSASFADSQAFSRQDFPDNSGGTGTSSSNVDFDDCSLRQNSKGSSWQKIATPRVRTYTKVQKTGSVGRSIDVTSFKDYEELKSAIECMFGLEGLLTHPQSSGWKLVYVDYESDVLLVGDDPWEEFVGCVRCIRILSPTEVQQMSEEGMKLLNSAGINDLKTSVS", "sequence of UniProt O24407 (whole entry, looked up)": "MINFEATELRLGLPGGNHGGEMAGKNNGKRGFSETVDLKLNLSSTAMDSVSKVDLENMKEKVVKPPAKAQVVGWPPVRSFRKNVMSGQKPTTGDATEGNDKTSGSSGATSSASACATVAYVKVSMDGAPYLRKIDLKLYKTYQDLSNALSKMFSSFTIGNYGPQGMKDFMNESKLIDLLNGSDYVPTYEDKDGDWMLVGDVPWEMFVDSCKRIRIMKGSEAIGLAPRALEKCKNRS", "sequence of UniProt O23661 (whole entry, looked up)": "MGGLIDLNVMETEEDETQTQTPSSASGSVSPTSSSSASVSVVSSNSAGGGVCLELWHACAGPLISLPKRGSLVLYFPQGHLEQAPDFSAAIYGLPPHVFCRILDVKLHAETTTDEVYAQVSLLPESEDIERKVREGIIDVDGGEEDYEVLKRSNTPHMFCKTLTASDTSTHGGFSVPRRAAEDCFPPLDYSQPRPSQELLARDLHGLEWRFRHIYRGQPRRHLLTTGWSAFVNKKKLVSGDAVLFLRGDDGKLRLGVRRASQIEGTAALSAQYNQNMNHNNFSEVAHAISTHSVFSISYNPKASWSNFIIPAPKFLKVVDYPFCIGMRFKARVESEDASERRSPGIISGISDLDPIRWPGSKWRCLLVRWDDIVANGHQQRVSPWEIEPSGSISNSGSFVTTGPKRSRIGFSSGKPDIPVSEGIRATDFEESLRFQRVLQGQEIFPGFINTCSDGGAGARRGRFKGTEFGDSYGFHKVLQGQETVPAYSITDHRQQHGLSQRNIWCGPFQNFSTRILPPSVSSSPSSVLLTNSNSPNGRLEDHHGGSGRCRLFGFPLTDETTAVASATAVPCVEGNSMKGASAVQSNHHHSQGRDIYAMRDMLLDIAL"}
{"data": "Sample 1", "target": "Phosphate system positive regulatory protein PHO4, full length, GST-tagged (PHO4, Saccharomyces cerevisiae, UniProt P07270, residues 1-312)", "technique": "competition protein-binding microarray", "form": "double-stranded DNA, one strand shown", "sample": "in vitro", "tested at": "2 µM", "setting": "whole 60-bp probe, lowest competitor level", "added": "Cbf1 competitor, 0.05 µM", "direction": "higher = stronger binding", "shared flanks, not repeated": "… GTCTTGATTCGCTTGACGCTGCTG", "Residues (chain)": "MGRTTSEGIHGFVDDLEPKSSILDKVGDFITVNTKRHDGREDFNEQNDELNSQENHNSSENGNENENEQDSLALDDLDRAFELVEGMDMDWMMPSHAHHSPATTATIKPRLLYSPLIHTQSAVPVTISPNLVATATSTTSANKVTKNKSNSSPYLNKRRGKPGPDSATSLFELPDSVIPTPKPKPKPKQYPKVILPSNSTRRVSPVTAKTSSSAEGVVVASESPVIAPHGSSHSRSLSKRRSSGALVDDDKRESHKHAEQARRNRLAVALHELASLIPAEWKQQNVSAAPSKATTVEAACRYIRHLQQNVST"}
{"Sequence": "GCGGGCCGCTTTCCGCACGGCCTTATCTGGGGAATG", "fluorescence intensity [a.u.]": 5150}
{"Sequence": "TGTACCGGGTGGGACGTCGTGCAAAGAATCAGAAGT", "fluorescence intensity [a.u.]": 8120}
{"Sequence": "AAATTACTAAGTTGGCGCGTGGGTGACGCCGTATGA", "fluorescence intensity [a.u.]": 10500}
{"Sequence": "CGGGGTTAAGTTTGTGGCGTGGGTGGCTTGCAGCAG", "fluorescence intensity [a.u.]": 6950}
{"Sequence": "ACAATGTTTCGACATCACCTGTTATGAAAAAAATAT", "fluorescence intensity [a.u.]": 4030}
{"Sequence": "AAATTACTAAGTTGTTATGTGGGTGACGCCGTATGA", "fluorescence intensity [a.u.]": 4230}
{"Sequence": "GTCTTGTCTCATTGTCACACCACTTTCCCCACTTCA", "fluorescence intensity [a.u.]": 5190}
{"Sequence": "ATAGACGTACTGTTACACGTGATGGCGAGGATAGCG", "fluorescence intensity [a.u.]": 13800}
{"data": "Sample 2", "Sequence": "B1 (IAA10)", "technique": "two-hybrid", "direction": "higher = firmer interaction", "B1": "IAA10 (Arabidopsis thaliana, UniProt Q38828); chain MNGLQEVCSSSGSVMIGLPAEEDENAAHSSEDSSCPDESVSETELDLALGLSIGRRKVRSSLSSSSSSLTRESGTKRSADSSPAAASNATRQVAVGWPPLRTYRINSLVNQAKSLATEGGLSSGIQKETTKSVVVAAKNDDACFIKSSRTSMLVKVTMDGVIIGRKVDLNALDSYAALEKTLDLMFFQIPSPVTRSNTQGYKTIKETCTSKLLDGSSEYIITYQDKDGDWMLVGDVPWQMFLGSVTRLRIMKTSIGAGVGK"}
{"partner": "ETT (Arabidopsis thaliana, UniProt O23661)", "reference": "out of 2 tests", "positive tests": 0}
{"partner": "ARF5 788-902 (Arabidopsis thaliana, UniProt P93024)", "reference": "out of 4 tests", "positive tests": 2}
{"partner": "IAA20 (Arabidopsis thaliana, UniProt O24410)", "setting": "weak activation fusion", "reference": "out of 2 tests", "positive tests": 0}
{"partner": "IAA16 (Arabidopsis thaliana, UniProt O24407)", "reference": "out of 4 tests", "positive tests": 2}
{"data": "Sample 3", "target": "Interferon regulatory factor 7, full length, phosphomimetic (IRF7, Homo sapiens, UniProt Q92985, residues 1-503, S471D/S472D/S475D/S476D/S477D/S483D/S484D/S487D)", "technique": "protein-binding microarray", "form": "double-stranded DNA, one strand shown", "sample": "in vitro", "tested at": "2200 nM top", "setting": "60-bp whole probe", "added": "salmon DNA 0.4 mg/ml", "reference": "random background probes", "direction": "higher = stronger binding", "shared flanks, not repeated": "GCCTAGCAC … GTCTTGATTCGCTTGACGCTGCTG", "sequence of UniProt Q92985 (whole entry, unmodified, looked up)": "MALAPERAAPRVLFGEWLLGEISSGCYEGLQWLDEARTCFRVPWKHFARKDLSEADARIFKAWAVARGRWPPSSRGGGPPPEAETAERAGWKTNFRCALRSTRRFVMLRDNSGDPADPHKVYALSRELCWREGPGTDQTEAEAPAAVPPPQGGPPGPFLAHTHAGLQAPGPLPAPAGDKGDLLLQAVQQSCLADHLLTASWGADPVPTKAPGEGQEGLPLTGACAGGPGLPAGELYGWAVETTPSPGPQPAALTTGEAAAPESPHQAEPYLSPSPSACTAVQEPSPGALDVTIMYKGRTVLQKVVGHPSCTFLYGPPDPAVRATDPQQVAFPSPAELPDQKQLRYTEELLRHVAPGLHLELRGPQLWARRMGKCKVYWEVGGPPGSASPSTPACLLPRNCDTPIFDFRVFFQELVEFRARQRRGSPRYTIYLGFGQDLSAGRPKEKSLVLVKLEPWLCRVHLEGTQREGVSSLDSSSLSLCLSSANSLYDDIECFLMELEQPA"}
{"Sequence": "TTAGATCTCAGTATCGAGTAGTGCTAG", "fitted relative affinity [z-score]": -0.105}
{"Sequence": "CTAGGTATCCTTATCCTTTAGTGCTAG", "fitted relative affinity [z-score]": 0.826}
{"Sequence": "GACGATTTCGACTATCGGGACGTGCTA", "fitted relative affinity [z-score]": 1.73}
{"Sequence": "CATCCAGCAGAGAGCCTCAGGTGCTAG", "fitted relative affinity [z-score]": 0.0691}
{"Sequence": "GACGGTTTGGGGACTGGGGACGTGCTA", "fitted relative affinity [z-score]": 0.568}
{"Sequence": "TTAGCTCTCGGTTTCGGTTAGTGCTAG", "fitted relative affinity [z-score]": 6.73}
{"Sequence": "TTAGATATCGGCACTGGATTAGTGCTA", "fitted relative affinity [z-score]": -0.403}
{"Sequence": "GACGATTTCGGGTATTGAGACGTGCTA", "fitted relative affinity [z-score]": 2.36}
{"data": "Mixed results", "parent": "viral docking peptide; KKVKRRLFETREL; partner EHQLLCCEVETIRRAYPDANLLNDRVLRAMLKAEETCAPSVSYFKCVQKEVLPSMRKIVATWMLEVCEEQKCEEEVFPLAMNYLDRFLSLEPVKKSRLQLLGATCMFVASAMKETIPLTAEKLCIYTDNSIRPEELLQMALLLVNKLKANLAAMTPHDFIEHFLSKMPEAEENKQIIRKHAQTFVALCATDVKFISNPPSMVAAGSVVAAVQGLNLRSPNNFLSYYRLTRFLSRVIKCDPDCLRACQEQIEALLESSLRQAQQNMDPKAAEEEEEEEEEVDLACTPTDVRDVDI"}
{"Variant": "R5A", "target": "CCND1, cyclin fold, Cln2 fusion (human)", "assay": "yeast growth competition, sequencing", "system": "yeast", "setting": "weak parent motif", "scale": "reference: not given, higher = stronger binding", "quantity": "normalised enrichment score", "result": 0.268}
